Measured values gathered from unrelated publications.
Parts stem from different laboratories: compare values within a part only. “And” joins repeats or separate records; there may be more than shown. Substitutions count along the parent as printed.
Chain of UniProt Q9P286 (whole entry, looked up): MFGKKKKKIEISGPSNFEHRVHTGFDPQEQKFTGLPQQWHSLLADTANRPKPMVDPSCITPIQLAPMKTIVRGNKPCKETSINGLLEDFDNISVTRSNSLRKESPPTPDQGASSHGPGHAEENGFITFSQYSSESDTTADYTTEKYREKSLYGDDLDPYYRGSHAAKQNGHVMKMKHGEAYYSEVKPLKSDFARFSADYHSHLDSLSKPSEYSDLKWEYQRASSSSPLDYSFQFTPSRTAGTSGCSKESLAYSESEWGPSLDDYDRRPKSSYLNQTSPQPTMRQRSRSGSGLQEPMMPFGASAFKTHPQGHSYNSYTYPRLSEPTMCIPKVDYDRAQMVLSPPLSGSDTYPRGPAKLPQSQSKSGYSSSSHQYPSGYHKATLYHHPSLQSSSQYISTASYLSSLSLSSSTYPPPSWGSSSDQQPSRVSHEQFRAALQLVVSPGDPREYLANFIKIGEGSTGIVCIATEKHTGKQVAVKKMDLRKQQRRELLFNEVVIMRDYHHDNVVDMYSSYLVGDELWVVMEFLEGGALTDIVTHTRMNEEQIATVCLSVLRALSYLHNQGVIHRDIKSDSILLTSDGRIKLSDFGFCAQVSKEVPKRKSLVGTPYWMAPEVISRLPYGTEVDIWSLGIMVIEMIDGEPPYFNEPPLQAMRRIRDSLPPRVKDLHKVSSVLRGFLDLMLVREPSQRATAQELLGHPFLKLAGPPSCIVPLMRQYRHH
Chain of UniProt P54753 (whole entry, looked up): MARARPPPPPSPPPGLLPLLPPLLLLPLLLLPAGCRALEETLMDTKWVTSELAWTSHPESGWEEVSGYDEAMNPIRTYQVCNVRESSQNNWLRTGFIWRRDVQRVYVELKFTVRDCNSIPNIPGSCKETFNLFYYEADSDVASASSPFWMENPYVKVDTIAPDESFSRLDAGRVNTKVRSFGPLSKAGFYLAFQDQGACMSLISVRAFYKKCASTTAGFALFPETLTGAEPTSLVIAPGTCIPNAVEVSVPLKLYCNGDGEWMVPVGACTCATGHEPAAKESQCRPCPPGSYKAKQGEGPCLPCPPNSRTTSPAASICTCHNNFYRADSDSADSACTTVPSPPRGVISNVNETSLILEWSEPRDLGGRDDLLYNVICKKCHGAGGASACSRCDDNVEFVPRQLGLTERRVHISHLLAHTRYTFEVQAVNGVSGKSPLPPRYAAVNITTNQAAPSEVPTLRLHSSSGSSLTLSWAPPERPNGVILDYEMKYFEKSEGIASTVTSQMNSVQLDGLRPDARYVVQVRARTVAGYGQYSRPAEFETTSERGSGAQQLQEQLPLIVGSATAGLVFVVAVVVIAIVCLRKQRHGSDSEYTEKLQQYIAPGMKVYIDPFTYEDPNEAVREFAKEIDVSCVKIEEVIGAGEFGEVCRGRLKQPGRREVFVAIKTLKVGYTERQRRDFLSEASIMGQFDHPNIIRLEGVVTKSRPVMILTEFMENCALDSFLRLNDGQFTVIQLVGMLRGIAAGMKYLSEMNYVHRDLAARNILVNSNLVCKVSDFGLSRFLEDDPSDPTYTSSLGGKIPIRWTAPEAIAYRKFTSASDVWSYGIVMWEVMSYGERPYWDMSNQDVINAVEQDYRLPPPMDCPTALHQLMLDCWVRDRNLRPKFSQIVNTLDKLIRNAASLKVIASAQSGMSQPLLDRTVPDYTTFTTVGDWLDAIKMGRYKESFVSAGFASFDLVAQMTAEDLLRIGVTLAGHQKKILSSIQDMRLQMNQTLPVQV

Set 1
Target: Serine/threonine-protein kinase PknB (pknB, Mycobacterium tuberculosis, UniProt P9WI81)
Chain of UniProt P9WI81 (whole entry, looked up): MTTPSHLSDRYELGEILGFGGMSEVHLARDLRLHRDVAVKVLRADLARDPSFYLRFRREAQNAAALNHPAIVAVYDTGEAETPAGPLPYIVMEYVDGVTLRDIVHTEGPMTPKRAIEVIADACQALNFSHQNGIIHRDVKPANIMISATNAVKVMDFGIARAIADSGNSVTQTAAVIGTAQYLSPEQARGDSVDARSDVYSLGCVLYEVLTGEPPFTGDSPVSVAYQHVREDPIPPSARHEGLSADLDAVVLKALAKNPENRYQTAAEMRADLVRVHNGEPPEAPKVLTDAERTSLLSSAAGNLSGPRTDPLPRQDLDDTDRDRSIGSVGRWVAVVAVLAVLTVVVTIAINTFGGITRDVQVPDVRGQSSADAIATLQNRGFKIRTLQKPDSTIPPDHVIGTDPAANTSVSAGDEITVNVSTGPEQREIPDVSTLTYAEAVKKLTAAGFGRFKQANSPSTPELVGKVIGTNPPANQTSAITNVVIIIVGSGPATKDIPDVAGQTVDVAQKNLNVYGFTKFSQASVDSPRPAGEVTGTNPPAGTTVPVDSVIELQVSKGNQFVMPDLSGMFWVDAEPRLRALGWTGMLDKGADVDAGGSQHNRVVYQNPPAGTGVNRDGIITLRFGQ
Effect on: cell-free assay
Method: competition with immobilised ligand
Concentration: 1 µM
`CC(=O)N1CCC(c2ccc(C(=O)NC3=NCCN3)cc2C(F)(F)F)CC1` gave a remaining binding of 100%.
`C[C@H](c1cccc(C#N)c1)n1cc(Cl)cc(C(N)=O)c1=N` gave a remaining binding of 89%.
`O=C1CCc2cc(Nc3cc(OC4CCOCC4)c([N+](=O)[O-])cc3Cl)ccc2N1` has a remaining binding of 94%.

Set 2
Target: CCNA1, cyclin fold, Cln2 fusion (human)
Method: yeast growth competition, sequencing
Sample: yeast
Notes: strong parent motif
Relative to: not given
Direction: higher = stronger binding
Starting sequence: viral docking peptide; YKVKRRLVFGADD; partner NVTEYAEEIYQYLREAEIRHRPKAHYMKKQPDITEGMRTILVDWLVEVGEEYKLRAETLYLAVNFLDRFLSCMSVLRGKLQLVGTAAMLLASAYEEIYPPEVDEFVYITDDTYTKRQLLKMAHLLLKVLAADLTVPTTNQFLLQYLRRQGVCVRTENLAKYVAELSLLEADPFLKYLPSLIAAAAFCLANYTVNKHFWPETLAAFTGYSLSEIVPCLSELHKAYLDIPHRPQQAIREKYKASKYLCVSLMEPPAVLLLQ
`YFVKRRLVFGADD [K2F]`: “normalised enrichment score” 0.859.
`YKVKRRLVFGLDD [A11L]` — result for “normalised enrichment score”: 1.28.
For `YKVMRRLVFGADD [K4M]`, “normalised enrichment score” read -0.588.
For `YKVKRRLVHGADD [F9H]`, “normalised enrichment score” read 0.455.
`YKVKHRLVFGADD [R5H]`: “normalised enrichment score” -0.0942.
For `YKVKVRLVFGADD [R5V]`, “normalised enrichment score” read 0.854.
For `YKVKRRLVFMADD [G10M]`, “normalised enrichment score” read 1.35.
`YKVKRRDVFGADD [L7D]` — result for “normalised enrichment score”: 0.246.

Set 3
Target: HLA class I histocompatibility antigen, C alpha chain, allele C*04:01 (Homo sapiens, UniProt P10321)
Effect on: peptide-MHC binding
Molecule type: peptide
Concentration: concentration not given
`GTFEFTSFF` — result for binding: “inactive”.
Under binding, `YTDKIAMSY` is recorded as “inactive”.
Under binding, `SQAAFGLPI` is recorded as “inactive”.
`FQWWRSHPL` — result for binding: “inactive”.
`MPAYIRNTL` — result for binding: “inactive”.
For `SYMSTFPLF`, binding read “active”.
Under binding, `ALFDRPAFK` is recorded as “inactive”.
Under binding, `FAYKTGSSM` is recorded as “inactive”.

Further values, each from its own experiment
For `O=C1NC(=O)c2c1c1c3ccccc3n3c1c1c2c2ccccc2n1[C@H]1CC[C@@H]3O1`, the remaining activity was 93.2% (Ephrin type-B receptor 3 (EPHB3, Homo sapiens, UniProt P54753); enzyme activity, inhibitor; 0.5 µM; relative to: control).
For `CC[C@@H](C)c1nc2cc(Nc3ccnc4ccc(S(=O)(=O)C(C)C)cc34)ccc2s1.Cl`, the survival was 88.9% and 88.7% and 98.1% and 93.7% and 96.7% (L929 RIPK3-/- reexpressing RIPK3 K51A/R69H; CCK-8; 1.563 µM).
`CC(C)(C)c1cc(C=C(C#N)C#N)cc(Br)c1O` gave a remaining activity of 119% (Serine/threonine-protein kinase PAK 5 (PAK5, Homo sapiens, UniProt Q9P286); enzyme activity, inhibitor; 0.5 µM; relative to: control).

Some of these lines once more (set 3):
Under binding, `SQAAFGLPI` is recorded as “inactive”.
`GTFEFTSFF` — result for binding: “inactive”.
